Published values gathered from unrelated publications.
Numbered parts are unrelated; each lists some results of a single study. Substitutions count along the parent as printed.

Block 1
Target: CCNB2, cyclin fold, Cln2 fusion (human)
Technique: yeast growth competition, sequencing
Medium: yeast
Setting: strong parent motif
Relative to: not given
Direction: higher = stronger binding
Starting sequence: BRCA2 docking peptide (human); PSIKRNLLNEFDR; partner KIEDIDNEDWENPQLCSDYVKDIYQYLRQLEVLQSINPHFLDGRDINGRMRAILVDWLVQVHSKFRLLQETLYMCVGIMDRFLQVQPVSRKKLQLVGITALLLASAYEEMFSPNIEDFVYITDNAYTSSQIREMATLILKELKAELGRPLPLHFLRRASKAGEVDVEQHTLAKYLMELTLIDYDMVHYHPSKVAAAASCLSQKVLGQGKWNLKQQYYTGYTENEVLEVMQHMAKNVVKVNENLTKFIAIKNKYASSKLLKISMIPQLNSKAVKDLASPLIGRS
For `I3R`, “normalised enrichment score” read 0.326.
`I3E`: “normalised enrichment score” 1.09.
`P1H`: “normalised enrichment score” 3.78.
For `F11A`, “normalised enrichment score” read 0.776.
`D12M` — result for “normalised enrichment score”: 3.6.
`L7C` — result for “normalised enrichment score”: 0.0298.
For `N6T`, “normalised enrichment score” read 1.09.
Under “normalised enrichment score”, `F11D` is recorded as 0.15.
`K4Y`: “normalised enrichment score” 1.29.
For `L8M`, “normalised enrichment score” read 3.76.
`N9M` — result for “normalised enrichment score”: 3.55.
Under “normalised enrichment score”, `P1N` is recorded as 3.62.
Under “normalised enrichment score”, `P1R` is recorded as 3.21.
`R13W` — result for “normalised enrichment score”: 3.84.
`N6V`: “normalised enrichment score” 0.233.
For `S2R`, “normalised enrichment score” read 2.49.
For `R5I`, “normalised enrichment score” read 2.05.

Block 2
Target: NFE2L3, bZIP domain (human)
Technique: DHFR protein complementation
Medium: yeast
Setting: single substitutions, most at no-binding floor
Relative to: wild-type JUN-FOS pair
Direction: higher = stronger binding
Starting sequence: JUN, bZIP domain (human); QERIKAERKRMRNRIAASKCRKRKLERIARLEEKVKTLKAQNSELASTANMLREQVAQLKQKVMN; partner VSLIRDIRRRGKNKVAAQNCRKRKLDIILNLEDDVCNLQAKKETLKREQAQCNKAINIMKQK
The binding fitness of `M51L` is reported as -1.55 natural log.
With `Q55W` the binding fitness was -1.46 natural log.
`L45Y` has a binding fitness of -1.19 natural log.
`K36P` gave a binding fitness of -1.53 natural log.
`L52G` gave a binding fitness of -1.44 natural log.
For `L31R`, the binding fitness was -1.52 natural log.
The binding fitness of `K39T` is reported as -1.51 natural log.
For `E33A`, the binding fitness was -1.43 natural log.
For `A29V`, the binding fitness was -1.35 natural log.
`L31K` has a binding fitness of -1.51 natural log.
With `E32T` the binding fitness was -1.57 natural log.

Block 3
Target: Interferon regulatory factor 7, full length, phosphomimetic (IRF7, Homo sapiens, UniProt Q92985, residues 1-503, S471D/S472D/S475D/S476D/S477D/S483D/S484D/S487D)
Chain of UniProt Q92985 (whole entry, unmodified, looked up): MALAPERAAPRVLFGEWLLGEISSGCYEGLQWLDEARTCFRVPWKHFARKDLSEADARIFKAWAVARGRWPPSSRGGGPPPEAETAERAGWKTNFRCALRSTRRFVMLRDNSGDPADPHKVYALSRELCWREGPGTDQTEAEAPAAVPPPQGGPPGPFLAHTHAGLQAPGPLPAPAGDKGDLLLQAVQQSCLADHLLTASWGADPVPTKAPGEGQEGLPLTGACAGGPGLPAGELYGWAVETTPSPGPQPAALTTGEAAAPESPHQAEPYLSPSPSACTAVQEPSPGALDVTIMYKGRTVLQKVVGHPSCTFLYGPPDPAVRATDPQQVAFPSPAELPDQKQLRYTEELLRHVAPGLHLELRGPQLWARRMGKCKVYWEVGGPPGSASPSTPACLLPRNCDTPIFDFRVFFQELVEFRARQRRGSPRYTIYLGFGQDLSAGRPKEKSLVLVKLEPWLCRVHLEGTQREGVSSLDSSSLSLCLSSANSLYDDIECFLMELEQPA
Technique: protein-binding microarray
Molecule type: double-stranded DNA, one strand shown
Medium: in vitro
Concentration: 2200 nM top
Setting: 60-bp whole probe
Together with: salmon DNA 0.4 mg/ml
Relative to: random background probes
Direction: higher = stronger binding
Shared flanks, not repeated: GCCTAGCAC … GTCTTGATTCGCTTGACGCTGCTG
`TCAATTGTGCAATCTTAAACTGTGCTA` — result for “fitted relative affinity”: 0.149 z-score.
Under “fitted relative affinity”, `TCAATGATCCAGTTTTACACTGTGCTA` is recorded as 0.177 z-score.
Under “fitted relative affinity”, `TTAGGTTTCCTTTCCCTTTGGTGCTAG` is recorded as 5.01 z-score.
`TTAGGACTGCGACTGCTTTAGTGCTAG` — result for “fitted relative affinity”: -0.266 z-score.
Under “fitted relative affinity”, `GACGGACTGGACTTTGGGGACGTGCTA` is recorded as -0.838 z-score.
Under “fitted relative affinity”, `GATGATTTCAGACTGGAGACGTGCTAG` is recorded as 0.252 z-score.
`TCAAAAAAAAAAAACTGTACTGTGCTA` — result for “fitted relative affinity”: -1.76 z-score.
`CCCAGTCTCATATTTATTAGGTGCTAG` — result for “fitted relative affinity”: 0.814 z-score.
`TTAGGTCTCCGTATCCTTTAGTGCTAG` — result for “fitted relative affinity”: 0.909 z-score.
For `TCACCTCTGCATTCCCTACTGTGCTAG`, “fitted relative affinity” read 2.46 z-score.
Under “fitted relative affinity”, `TTAGATCCCAGTATCGATTAGTGCTAG` is recorded as 0.861 z-score.
Under “fitted relative affinity”, `GACGGTTTCGGTGTCGGGACGTGCTAG` is recorded as 4.31 z-score.
`TCATGTTTGATAATTTTACTGTGCTAG`: “fitted relative affinity” 0.974 z-score.
`ATGAGCCTCTGTTTTGAGCAGTGCTAG`: “fitted relative affinity” 0.382 z-score.
Under “fitted relative affinity”, `TTAGGTTTCGGTCTAGGTTAGTGCTAG` is recorded as 6.27 z-score.
`GGTCTTTCTGTTTTCTCCATGTGCTAG` — result for “fitted relative affinity”: 5.05 z-score.
Under “fitted relative affinity”, `TTAGGTCTCGGTCTGGGTTAGTGCTAG` is recorded as 0.372 z-score.
`TTAGGTCTCGTACTGCTTTAGTGCTAG`: “fitted relative affinity” 0.406 z-score.
`GACGAACTAAGTTTCGAGACGTGCTAG` — result for “fitted relative affinity”: 2.8 z-score.

Mixed results
`PhoQ, residues 284 288 289 292 302 303 SASVAL` has a fold induction of 8.51 (PhoP, residues 12 14 15 18 19 IQFRS (Escherichia coli, UniProt P23836); Sort-seq, measured: YFP reporter; E. coli; PhoQ-PhoP variant library, together with: 10 µM Mg2+; relative to: high Mg2+ state, higher = stronger signaling).

A few entries again (block 1):
`N9M` — result for “normalised enrichment score”: 3.55.
`R13W` — result for “normalised enrichment score”: 3.84.
`N6V`: “normalised enrichment score” 0.233.
